Measurements pooled from the literature.
Parts stem from different laboratories: compare values within a part only. Several values in a cell are separate wells, animals, samples, runs or records.
UniProt P10721, sequence (whole entry, unmodified, looked up): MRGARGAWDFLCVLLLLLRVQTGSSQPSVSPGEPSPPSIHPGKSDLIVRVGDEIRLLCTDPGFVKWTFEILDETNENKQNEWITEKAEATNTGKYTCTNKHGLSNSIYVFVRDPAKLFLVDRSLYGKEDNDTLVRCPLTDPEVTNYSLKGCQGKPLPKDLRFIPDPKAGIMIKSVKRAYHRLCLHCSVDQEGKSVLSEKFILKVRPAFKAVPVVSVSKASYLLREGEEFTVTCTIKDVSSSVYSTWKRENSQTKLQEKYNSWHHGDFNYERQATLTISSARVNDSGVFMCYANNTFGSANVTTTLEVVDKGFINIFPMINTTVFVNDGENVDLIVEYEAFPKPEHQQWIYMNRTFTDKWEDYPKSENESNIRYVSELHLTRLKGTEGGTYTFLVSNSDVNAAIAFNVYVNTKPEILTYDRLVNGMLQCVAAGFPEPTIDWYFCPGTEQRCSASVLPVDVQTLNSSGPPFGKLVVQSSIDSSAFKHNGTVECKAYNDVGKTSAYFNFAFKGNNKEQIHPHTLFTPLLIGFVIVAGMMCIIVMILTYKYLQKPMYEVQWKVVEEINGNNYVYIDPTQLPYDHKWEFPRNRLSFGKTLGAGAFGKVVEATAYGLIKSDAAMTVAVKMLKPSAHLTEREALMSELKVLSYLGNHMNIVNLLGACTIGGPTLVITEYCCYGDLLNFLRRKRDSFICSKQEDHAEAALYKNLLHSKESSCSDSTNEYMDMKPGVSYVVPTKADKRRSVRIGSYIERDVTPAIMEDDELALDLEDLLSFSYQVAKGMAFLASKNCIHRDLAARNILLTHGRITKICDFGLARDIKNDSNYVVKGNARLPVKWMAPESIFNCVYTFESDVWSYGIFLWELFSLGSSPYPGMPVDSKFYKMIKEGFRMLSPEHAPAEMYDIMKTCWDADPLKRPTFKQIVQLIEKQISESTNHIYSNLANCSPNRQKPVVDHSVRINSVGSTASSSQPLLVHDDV
UniProt P22607, sequence (whole entry, looked up): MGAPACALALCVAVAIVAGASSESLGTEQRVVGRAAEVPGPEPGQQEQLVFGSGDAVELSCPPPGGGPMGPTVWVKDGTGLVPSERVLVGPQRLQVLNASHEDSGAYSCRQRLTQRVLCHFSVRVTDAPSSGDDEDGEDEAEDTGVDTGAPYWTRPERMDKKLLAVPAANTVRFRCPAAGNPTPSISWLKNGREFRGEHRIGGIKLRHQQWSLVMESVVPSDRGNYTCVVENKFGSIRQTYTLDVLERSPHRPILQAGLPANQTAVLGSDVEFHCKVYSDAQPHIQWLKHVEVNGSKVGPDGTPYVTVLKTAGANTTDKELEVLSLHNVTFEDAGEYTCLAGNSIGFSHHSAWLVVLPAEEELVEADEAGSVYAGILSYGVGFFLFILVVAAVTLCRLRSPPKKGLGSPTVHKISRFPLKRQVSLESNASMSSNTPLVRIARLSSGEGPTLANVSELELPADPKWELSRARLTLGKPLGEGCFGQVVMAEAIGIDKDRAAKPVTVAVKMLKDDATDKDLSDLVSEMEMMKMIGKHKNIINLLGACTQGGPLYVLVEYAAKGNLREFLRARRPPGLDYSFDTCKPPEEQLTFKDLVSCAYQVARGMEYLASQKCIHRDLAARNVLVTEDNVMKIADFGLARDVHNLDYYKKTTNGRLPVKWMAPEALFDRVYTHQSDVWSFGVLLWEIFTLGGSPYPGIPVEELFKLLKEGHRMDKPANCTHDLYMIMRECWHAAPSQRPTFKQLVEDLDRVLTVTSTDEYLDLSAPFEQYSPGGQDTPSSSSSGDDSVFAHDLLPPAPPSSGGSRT
UniProt Q9NY57, sequence (whole entry, looked up): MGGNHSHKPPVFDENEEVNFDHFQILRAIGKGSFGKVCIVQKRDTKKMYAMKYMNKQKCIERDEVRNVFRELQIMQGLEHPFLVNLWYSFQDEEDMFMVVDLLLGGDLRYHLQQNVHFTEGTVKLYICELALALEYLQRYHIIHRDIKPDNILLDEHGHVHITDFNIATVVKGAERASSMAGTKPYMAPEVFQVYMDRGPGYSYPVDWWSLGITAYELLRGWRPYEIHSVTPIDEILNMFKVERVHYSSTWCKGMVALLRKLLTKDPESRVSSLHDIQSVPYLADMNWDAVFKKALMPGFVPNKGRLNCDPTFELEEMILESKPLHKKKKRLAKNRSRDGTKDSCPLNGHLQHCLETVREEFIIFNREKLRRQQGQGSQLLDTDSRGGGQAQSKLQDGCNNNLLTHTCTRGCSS
UniProt Q9BRS2, sequence (whole entry, looked up): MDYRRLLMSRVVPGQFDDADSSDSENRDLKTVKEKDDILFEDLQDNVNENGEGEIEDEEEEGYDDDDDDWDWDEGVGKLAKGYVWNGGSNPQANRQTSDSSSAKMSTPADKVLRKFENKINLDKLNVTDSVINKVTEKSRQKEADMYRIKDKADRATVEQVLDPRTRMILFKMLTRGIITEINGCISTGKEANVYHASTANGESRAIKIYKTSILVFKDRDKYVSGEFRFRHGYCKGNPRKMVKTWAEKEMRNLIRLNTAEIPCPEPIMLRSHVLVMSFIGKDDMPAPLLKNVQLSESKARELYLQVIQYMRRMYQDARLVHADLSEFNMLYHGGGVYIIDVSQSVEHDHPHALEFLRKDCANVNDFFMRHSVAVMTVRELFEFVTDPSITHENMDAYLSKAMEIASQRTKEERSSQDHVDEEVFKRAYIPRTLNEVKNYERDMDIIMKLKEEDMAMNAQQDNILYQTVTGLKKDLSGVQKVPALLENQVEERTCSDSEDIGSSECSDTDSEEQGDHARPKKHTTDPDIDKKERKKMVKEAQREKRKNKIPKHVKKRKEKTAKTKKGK
UniProt P41743, sequence (whole entry, looked up): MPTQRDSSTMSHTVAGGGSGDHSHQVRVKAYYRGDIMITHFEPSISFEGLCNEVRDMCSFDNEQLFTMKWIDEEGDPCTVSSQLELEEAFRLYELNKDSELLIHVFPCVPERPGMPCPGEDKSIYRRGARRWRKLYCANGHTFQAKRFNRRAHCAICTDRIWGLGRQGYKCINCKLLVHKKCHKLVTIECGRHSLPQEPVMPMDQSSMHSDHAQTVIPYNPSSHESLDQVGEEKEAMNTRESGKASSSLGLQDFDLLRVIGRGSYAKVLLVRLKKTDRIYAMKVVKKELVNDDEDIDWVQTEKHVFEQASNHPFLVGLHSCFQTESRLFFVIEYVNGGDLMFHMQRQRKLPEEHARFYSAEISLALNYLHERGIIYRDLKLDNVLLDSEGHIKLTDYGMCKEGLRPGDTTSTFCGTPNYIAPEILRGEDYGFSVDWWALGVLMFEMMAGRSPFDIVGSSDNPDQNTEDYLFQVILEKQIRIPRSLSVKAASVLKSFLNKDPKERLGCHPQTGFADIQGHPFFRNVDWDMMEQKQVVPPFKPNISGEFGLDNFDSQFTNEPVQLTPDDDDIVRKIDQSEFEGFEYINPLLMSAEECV
UniProt Q9P2K8, sequence (whole entry, unmodified, looked up): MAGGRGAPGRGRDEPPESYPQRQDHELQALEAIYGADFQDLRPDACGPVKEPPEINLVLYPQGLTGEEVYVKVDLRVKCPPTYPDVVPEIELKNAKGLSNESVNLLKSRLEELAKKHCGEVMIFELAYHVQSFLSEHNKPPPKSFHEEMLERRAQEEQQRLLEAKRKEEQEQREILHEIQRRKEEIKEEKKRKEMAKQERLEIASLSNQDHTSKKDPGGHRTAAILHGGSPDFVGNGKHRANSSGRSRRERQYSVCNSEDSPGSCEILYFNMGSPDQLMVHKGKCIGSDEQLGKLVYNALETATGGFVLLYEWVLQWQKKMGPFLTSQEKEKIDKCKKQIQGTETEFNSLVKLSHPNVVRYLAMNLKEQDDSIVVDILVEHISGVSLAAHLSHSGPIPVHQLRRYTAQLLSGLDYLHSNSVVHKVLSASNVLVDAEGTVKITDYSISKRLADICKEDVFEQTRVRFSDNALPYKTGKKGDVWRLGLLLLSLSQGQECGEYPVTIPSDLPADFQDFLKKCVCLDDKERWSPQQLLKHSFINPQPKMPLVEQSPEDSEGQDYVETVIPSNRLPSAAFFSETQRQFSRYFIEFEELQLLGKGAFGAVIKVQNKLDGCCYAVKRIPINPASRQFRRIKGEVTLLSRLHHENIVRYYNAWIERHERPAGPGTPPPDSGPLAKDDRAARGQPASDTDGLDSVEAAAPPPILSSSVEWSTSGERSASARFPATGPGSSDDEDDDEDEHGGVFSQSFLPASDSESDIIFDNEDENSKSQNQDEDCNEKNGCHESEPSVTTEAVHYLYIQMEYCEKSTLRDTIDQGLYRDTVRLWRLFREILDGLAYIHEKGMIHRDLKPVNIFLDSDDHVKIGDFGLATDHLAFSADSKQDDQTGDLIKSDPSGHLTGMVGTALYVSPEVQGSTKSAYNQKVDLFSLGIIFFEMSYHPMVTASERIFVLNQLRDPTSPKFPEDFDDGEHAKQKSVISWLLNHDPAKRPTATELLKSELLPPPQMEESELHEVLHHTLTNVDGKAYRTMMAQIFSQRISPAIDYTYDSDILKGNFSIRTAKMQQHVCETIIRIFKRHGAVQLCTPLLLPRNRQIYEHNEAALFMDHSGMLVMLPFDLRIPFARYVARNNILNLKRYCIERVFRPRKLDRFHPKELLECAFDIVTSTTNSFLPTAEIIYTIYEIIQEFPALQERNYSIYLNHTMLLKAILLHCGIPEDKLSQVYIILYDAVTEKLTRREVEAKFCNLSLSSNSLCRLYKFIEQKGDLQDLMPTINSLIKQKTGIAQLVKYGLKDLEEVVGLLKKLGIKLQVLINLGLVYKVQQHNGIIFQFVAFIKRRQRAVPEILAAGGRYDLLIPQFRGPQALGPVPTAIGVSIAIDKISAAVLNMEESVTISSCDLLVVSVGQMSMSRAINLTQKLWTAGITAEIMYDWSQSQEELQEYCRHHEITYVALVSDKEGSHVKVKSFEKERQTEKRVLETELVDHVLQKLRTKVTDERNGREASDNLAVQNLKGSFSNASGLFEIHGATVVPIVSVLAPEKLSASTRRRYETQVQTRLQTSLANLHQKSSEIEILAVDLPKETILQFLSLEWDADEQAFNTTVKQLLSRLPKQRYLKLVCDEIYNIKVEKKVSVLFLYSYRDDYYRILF

Sample 1
Organism: Sarcocystis neurona
Read-out: parasite growth
Concentration: 10 µM
SMILES | inhibition [%]
Cl.NC1CCN(c2cccc(Cl)n2)CC1 | -19.5
Cc1c(C(=O)NN2CCCCC2)nn(-c2ccc(Cl)cc2Cl)c1-c1ccc(I)cc1 | 96.7
C[C@@H](c1ncncc1F)[C@](O)(Cn1cncn1)c1ccc(F)cc1F | -21.7

Sample 2
Cell line: HaCaT
Concentration: 100 µM
Time: 60 h
SMILES | viability [%]
O=C(O)c1cccnc1Nc1cccc(C(F)(F)F)c1 | 120
CCC(=O)NCC[C@@H]1CCc2ccc3c(c21)CCO3 | 131
COc1cc(NS(=O)(=O)c2ccc(N)cc2)ncn1 | 115

Sample 3
Host: mouse
Medium: microsomes or S9
Concentration: 2 µM
Time: 0.5 h
Structure (SMILES) | remaining compound [%]
CCOc1cc(=O)n2c(c1C(=O)NC1CCCC1)CCCCC2 | 49
Cc1cc(C)cc(N/C(N)=N/Cc2nc(C(C)(C)C)cs2)c1 | 0.168
COC(=O)[C@@H](O)c1c(C)nc2[nH]c(C)c(C)c2c1Cl | 11.8
O=C(Cn1nc2c(cc1=O)CCCCC2)Nc1nc[nH]n1 | 89.2

Sample 4
Method: PRP chromatography estimate
Medium: 1,9-decadiene/PBS
pH: 7.4
Structure (SMILES) | logD
CC(C)C[C@@H]1NC(=O)[C@H](C(C)C)NC(=O)[C@@H](CC(C)C)NC(=O)[C@@H](CC(C)C)NC(=O)[C@H](C)NC(=O)[C@H](CC(C)C)NC(=O)[C@@H](CC(C)C)NC1=O | 1.31
CC(C)C[C@@H]1NC(=O)[C@H](C)NC(=O)[C@H](Cc2cscn2)NC(=O)[C@H](CCC(=O)N2CCCC2)NC(=O)[C@H](CC(C)C)NC(=O)[C@H](CC(C)C)NC(=O)[C@H](CC(C)C)NC1=O | -1.44
CC(C)C[C@@H]1NC(=O)[C@H](C)NC(=O)[C@H](Cc2cscn2)NC(=O)[C@H](C)NC(=O)[C@H](C(C)C)NC(=O)[C@H](CC(C)C)NC(=O)[C@@H](CC(C)C)NC1=O | -2.08
CC(C)C[C@@H]1NC(=O)[C@H](C)NC(=O)[C@H](C)NC(=O)[C@H](CCC(=O)N2CCCC2)NC(=O)[C@H](CC(C)C)NC(=O)[C@H](CC(C)C)NC(=O)[C@H](CC(C)C)NC1=O | -1.95

Sample 5
SMILES: CN(C(=O)c1ccccc1)c1cc(N(C)c2ccc3c(c2)CCc2ccc(C(=O)NCCN4CCOCC4)cc2C3=O)ccc1F
Read-out: cell-free assay
Method: competition with immobilised ligand
Concentration: 1 µM
target | remaining binding [%]
PRKCI (Homo sapiens, UniProt P41743) | 100
Mast/stem cell growth factor receptor Kit, autoinhibited (KIT, Homo sapiens, UniProt P10721) | 100
MUSK (Homo sapiens, UniProt O15146) | 100
ZAP70 (Homo sapiens, UniProt P43403) | 81
STK17A (Homo sapiens, UniProt Q9UEE5) | 100
RIOK1 (Homo sapiens, UniProt Q9BRS2) | 74
WNK1 (Homo sapiens, UniProt Q9H4A3) | 100
KIT (Homo sapiens, UniProt P10721, V559D) | 100
eIF-2-alpha kinase GCN2, C-terminal kinase domain (EIF2AK4, Homo sapiens, UniProt Q9P2K8, S808G) | 100
STK32B (Homo sapiens, UniProt Q9NY57) | 79
FRK (Homo sapiens, UniProt P42685) | 72
Insulin receptor (INSR, Homo sapiens, UniProt P06213) | 84
CHEK2 (Homo sapiens, UniProt O96017) | 100
FGFR3 (Homo sapiens, UniProt P22607) | 93

Single results of other studies
Compound | tested on | assay | test system | conditions | how to read | endpoint | result
CN1CC[C@H](c2c(O)cc(O)c3c(=O)cc(-c4ccccc4Cl)oc23)[C@H](O)C1 | HuT78 | qPCR, measured: RARA |  | concentration not given, 24 h, unit not given | relative to: untreated control | mRNA level | 1.12 and 1.09 and 0.95
CC(C)n1cnc(-c2ccc(F)cc2)c1-c1ncc(C(=O)Nc2ccc(N3CCN(C)CC3)cc2)[nH]1 |  |  | human, idiopathic pulmonary fibrosis | 60 mg once daily, trial, treatment-emergent |  | grade 5 ventricular extrasystoles | 0%
